Measurements of several laboratories.
Compare with care: the assays were run in different laboratories. Values joined by “and” are separate records of one study, mostly repeats; a detail may differ.
Target: Misshapen-like kinase 1 (MINK1, Homo sapiens, UniProt Q8N4C8)
Sequence of UniProt Q8N4C8 (whole entry, looked up): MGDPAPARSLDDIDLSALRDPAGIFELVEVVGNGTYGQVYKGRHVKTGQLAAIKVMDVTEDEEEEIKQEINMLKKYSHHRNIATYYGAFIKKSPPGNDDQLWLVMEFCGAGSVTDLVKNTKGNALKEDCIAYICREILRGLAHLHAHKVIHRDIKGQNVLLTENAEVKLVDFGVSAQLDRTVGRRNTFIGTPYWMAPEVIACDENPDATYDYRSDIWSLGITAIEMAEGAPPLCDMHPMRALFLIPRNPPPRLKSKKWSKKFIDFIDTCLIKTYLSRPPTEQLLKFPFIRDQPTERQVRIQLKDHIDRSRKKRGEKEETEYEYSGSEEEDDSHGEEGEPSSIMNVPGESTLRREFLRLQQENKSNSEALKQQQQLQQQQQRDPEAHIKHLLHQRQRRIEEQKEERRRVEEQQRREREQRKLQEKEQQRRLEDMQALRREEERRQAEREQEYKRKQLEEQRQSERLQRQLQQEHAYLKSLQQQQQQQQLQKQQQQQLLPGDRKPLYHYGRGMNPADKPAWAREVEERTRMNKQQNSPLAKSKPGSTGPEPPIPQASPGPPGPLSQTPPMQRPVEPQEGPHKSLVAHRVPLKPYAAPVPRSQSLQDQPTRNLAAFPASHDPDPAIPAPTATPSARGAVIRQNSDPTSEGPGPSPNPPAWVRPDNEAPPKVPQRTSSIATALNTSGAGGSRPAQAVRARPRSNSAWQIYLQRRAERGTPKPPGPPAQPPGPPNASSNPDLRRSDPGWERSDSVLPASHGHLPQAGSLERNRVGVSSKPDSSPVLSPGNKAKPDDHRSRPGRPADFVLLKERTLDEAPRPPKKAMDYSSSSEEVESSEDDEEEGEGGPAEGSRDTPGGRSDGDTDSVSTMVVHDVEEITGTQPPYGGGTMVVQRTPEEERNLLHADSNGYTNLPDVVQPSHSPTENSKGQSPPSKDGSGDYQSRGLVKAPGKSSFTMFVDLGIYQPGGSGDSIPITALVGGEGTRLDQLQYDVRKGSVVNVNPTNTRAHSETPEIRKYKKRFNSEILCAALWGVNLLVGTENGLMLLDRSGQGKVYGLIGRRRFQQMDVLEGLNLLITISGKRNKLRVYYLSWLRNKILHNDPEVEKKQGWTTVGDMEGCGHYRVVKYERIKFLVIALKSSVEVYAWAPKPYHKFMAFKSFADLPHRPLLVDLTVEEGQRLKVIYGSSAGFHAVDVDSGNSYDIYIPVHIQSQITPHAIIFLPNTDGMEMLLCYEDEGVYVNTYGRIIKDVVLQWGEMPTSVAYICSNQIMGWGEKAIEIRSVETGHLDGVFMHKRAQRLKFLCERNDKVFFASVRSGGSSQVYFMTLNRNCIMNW

With `COc1c(OCCCN2CCOCC2)ccc2c1N=C(NC(=O)c1cnc(N)nc1)N1CCN=C21` the remaining activity was 126% (kinase activity, inhibitor; 1 µM; reference: untreated control).
With `COc1cc(Nc2nccc(-c3cnn4nc(OC)ccc34)n2)cc(C(F)(F)F)c1` the remaining binding was 89% (binding, competition with immobilised ligand; 1 µM).
`CN1CCN(Cc2ccc(-c3ccc(CO[C@H]4CCC[C@@H]4NC(=O)c4cc(-c5cnn(C)c5)cnc4N)cc3)cc2)CC1` gave an inhibition of -7% (enzyme activity, inhibitor; 0.1 µM).
`NC(=O)C[C@H]1CCc2sc3ncnc(O[C@H]4CC[C@H](N5CCOCC5)CC4)c3c21` gave an inhibition of 15% (enzyme activity, inhibitor; 10 µM).
The inhibition of `Cc1cccc(O[C@H]2CCC[C@@H](C(C)CNCc3ccncc3)C2)c1` (relative stereo) is reported as -13% (enzyme activity, inhibitor; 10 µM).
The remaining activity of `O=C=[N][Ru-4]123([n]4c5ccc(O)cc5c5c6c(c7cc(F)c[n+]1c7c54)C(=O)NC6=O)[S+]1CC[S+]2CC[S+]3CC1` (stereo not drawn) is reported as 77% (enzyme activity; 100 nM, human enzyme, together with: 10 µM ATP; reference: untreated).
For `Nc1ncc(-c2cc(-c3cnn(CC(F)(F)F)c3)ncc2F)nc1C(=O)NC1CNCC(F)C1` (stereo not drawn), the remaining activity was 108% (enzyme activity; 1 µM; reference: DMSO control).
With `Cc1cnc2nc1Nc1cccc(c1)COC/C=C/COCc1cc(ccc1OCCN1CCOCC1)N2` the remaining binding was 84% (binding, competition with immobilised ligand; 0.1 µM).
`CCN1CCN(Cc2ccc(C(=O)Nc3ccc(C)c(NCc4cnc5[nH]ccc5c4OC)c3)cc2C(F)(F)F)CC1` has a remaining binding of 10% (binding, competition with immobilised ligand; 1 µM).
The remaining binding of `Nc1ncc2c(n1)-c1c([nH]c3ccc(C4=CCOCC4)cc13)CCC2` is reported as 81% (binding, competition with immobilised ligand; 1 µM).
`CN1CC[C@@H](COc2cnc(C#N)cc2-c2ccn3nc(NC(=O)C4CC4)cc3c2)C1` has an inhibition of 13% (enzyme activity, inhibitor; 1 µM).
The remaining binding of `C=CC(=O)N1CCCC(n2c(=O)c3ncccc3n(Cc3ccc(Oc4ccccc4)cc3)c2=O)C1` (stereo not drawn) is reported as 75% (cell-free assay, competition with immobilised ligand; 1 µM).
For `COCC12C(=O)NC3C4(C(OC)CC1O)C1CC5(O)C(OC)C(O)C(OC(C)=O)(C1C5OC(=O)c1ccccc1)C3(O)C(OC)C24` (stereo not drawn), the remaining activity was 90% and 111% (kinase activity, inhibitor, ProQinase kinase profiling; 25 µM; reference: control).
`COc1ccc(NC(=O)Nc2ccc3c(c2)C(=O)N(C(C)CO)CC(C)C(CN(C)Cc2ccc4c(c2)OCO4)O3)cc1` (stereo not drawn) gave a remaining activity of 93% (kinase activity, KinaseProfiler; 0.03 µM, species human; reference: control).
The inhibition of `C=CC(=O)Nc1cccc(-c2cnc3[nH]cc(C(=O)NC(C)(C)C)c3n2)c1` is reported as 23% and 35% (kinase activity; 0.1 µM).
